Results from different studies.
Every numbered part comes from another study and shows a few of its results, in no order.
UniProt Q94JM3, sequence (whole entry, looked up): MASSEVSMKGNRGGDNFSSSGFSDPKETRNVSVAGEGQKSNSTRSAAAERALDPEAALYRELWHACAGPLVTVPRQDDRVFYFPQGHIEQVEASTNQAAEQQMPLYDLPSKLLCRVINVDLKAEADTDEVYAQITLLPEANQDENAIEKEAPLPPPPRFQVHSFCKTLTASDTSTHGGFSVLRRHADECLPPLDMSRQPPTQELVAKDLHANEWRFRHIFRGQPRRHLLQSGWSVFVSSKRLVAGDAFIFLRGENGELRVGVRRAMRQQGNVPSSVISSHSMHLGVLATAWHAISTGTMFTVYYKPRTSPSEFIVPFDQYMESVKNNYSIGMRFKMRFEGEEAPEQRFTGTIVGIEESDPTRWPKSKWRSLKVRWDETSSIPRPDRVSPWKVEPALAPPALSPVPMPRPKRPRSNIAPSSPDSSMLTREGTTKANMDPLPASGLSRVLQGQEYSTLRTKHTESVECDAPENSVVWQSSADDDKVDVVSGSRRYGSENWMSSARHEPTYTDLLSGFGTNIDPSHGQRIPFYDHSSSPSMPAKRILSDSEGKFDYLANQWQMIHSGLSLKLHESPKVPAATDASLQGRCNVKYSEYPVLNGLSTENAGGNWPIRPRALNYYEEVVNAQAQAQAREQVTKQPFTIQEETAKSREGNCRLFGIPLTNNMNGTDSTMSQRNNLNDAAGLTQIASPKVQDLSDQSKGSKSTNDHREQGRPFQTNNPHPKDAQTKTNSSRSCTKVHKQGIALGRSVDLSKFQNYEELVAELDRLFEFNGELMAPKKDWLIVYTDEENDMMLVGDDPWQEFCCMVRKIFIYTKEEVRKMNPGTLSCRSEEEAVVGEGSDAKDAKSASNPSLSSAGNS
UniProt Q9Y6R4, sequence (whole entry, looked up): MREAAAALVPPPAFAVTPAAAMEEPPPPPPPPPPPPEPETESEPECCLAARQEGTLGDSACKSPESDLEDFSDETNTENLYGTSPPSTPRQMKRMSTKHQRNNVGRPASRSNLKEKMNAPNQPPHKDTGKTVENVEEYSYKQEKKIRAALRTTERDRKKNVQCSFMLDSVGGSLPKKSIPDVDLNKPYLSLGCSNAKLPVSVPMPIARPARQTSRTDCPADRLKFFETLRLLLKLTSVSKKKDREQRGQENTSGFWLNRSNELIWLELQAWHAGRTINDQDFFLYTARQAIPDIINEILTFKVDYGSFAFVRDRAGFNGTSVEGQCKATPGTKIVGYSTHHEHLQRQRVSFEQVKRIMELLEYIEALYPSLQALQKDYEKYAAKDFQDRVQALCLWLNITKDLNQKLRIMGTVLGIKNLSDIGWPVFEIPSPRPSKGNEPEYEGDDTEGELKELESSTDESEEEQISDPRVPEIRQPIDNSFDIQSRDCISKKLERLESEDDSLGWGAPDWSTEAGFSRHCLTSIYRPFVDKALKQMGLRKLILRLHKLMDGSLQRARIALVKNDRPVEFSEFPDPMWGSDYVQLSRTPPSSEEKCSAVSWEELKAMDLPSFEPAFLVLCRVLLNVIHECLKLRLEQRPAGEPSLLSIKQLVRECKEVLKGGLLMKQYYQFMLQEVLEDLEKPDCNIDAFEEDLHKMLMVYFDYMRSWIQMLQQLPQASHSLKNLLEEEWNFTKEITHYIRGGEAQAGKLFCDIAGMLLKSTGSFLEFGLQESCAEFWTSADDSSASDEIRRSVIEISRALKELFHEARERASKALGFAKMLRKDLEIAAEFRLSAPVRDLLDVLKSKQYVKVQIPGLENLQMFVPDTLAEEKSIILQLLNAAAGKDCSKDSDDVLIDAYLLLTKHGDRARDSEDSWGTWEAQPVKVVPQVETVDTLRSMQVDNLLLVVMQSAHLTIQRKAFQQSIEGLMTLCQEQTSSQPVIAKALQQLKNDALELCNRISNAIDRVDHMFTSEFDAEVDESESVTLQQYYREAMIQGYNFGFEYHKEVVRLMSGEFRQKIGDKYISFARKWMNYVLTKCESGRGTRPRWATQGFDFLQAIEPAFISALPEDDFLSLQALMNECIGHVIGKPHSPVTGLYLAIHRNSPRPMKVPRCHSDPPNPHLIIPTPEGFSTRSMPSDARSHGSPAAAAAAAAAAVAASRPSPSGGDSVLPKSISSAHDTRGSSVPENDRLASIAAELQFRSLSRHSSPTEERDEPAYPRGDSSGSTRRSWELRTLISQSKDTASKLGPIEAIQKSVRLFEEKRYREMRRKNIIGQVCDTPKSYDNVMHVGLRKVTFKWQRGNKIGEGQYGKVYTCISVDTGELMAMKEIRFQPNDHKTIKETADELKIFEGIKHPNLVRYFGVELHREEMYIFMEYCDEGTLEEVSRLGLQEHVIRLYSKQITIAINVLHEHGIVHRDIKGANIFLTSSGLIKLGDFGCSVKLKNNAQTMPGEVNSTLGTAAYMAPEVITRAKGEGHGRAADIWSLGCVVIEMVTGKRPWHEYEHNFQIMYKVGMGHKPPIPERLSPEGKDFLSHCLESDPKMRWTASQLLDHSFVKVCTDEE
UniProt P11362, sequence (whole entry, looked up): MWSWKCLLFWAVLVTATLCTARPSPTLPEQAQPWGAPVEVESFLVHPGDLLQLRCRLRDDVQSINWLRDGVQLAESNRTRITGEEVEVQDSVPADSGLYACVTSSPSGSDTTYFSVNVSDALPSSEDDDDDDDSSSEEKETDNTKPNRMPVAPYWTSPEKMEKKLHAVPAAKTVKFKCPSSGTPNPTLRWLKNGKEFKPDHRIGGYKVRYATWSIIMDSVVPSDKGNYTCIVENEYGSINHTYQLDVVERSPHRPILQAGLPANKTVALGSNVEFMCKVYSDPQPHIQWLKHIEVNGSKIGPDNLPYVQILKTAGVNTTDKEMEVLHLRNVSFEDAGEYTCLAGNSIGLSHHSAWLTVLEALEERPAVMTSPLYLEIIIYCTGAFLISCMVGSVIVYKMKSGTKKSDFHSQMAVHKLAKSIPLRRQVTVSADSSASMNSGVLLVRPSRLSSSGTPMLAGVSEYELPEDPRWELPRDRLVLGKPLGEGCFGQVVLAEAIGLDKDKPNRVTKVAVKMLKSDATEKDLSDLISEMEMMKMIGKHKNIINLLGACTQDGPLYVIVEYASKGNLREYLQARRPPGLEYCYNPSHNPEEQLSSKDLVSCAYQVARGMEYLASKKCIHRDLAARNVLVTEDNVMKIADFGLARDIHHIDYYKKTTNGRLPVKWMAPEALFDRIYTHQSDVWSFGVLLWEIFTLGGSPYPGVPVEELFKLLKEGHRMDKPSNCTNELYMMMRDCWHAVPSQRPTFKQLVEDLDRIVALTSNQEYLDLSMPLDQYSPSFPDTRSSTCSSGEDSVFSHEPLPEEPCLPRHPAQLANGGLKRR
UniProt Q9ZTX9, sequence (whole entry, looked up): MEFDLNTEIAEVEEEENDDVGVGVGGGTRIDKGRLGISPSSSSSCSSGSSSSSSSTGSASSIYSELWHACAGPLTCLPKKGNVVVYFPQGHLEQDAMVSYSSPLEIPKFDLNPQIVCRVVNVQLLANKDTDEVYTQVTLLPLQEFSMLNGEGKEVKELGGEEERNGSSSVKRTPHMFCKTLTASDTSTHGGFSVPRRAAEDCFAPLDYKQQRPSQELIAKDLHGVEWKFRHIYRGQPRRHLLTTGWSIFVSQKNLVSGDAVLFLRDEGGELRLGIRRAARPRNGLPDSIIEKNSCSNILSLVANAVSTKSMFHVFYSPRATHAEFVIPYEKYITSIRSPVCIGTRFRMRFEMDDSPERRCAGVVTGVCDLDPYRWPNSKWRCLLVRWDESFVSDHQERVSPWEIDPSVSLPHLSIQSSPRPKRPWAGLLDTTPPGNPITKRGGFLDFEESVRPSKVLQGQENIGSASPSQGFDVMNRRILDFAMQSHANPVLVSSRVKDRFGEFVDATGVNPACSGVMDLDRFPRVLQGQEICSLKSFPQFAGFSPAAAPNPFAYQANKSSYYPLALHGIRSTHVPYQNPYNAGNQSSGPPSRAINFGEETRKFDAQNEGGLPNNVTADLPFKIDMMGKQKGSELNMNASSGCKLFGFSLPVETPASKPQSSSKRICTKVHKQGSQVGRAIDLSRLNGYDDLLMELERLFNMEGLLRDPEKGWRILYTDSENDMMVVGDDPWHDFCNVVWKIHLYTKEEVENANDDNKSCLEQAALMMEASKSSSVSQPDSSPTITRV
UniProt Q9LQE8, sequence (whole entry, looked up): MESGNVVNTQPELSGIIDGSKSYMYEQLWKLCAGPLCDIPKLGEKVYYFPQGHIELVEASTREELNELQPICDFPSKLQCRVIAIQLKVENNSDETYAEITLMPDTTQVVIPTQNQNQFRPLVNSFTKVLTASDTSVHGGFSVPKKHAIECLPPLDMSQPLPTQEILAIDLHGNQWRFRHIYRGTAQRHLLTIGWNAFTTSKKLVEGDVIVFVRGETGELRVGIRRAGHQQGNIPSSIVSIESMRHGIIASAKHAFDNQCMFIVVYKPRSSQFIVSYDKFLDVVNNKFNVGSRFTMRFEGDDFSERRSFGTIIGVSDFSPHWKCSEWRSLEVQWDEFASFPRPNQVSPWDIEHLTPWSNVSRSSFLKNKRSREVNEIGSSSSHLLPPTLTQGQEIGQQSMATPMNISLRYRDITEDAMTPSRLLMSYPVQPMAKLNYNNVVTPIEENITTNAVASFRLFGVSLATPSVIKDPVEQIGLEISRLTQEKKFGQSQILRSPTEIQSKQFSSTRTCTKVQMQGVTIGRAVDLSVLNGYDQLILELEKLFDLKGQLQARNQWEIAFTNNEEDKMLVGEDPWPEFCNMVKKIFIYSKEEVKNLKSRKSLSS
UniProt Q38824, sequence (whole entry, looked up): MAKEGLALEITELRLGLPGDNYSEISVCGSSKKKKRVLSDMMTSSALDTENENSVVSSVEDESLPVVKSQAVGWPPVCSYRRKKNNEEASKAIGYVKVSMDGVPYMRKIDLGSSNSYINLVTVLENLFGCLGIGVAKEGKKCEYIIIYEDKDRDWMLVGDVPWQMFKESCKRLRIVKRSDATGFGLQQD
UniProt Q9C5X0, sequence (whole entry, looked up): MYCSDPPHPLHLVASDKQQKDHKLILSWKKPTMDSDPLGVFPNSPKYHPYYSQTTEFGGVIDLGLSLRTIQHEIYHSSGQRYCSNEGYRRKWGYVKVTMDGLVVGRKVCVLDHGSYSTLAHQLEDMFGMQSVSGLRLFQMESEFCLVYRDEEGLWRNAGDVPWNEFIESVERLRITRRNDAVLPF

Study 1 — Molecule: B1 (IAA1); technique: two-hybrid; direction: higher = firmer interaction; quantity: positive tests
B1: IAA1 (Arabidopsis thaliana, UniProt P49677); chain MEVTNGLNLKDTELRLGLPGAQEEQQLELSCVRSNNKRKNNDSTEESAPPPAKTQIVGWPPVRSNRKNNNNKNVSYVKVSMDGAPYLRKIDLKMYKNYPELLKALENMFKFTVGEYSEREGYKGSGFVPTYEDKDGDWMLVGDVPWDMFSSSCQKLRIMKGSEAPTAL
ARF4 660-788 (Arabidopsis thaliana, UniProt Q9ZTX9); reference: out of 4 tests: 1
ARF5 788-902 (Arabidopsis thaliana, UniProt P93024); reference: out of 4 tests: 4
IAA34 (Arabidopsis thaliana, UniProt Q9C5X0); reference: out of 4 tests: 4
ARF14 497-605 (Arabidopsis thaliana, UniProt Q9LQE8); reference: out of 2 tests: 0
IAA6 (Arabidopsis thaliana, UniProt Q38824); reference: out of 4 tests: 0
IAA8 (Arabidopsis thaliana, UniProt Q38826); reference: out of 4 tests: 4
IAA4 (Arabidopsis thaliana, UniProt P33077); reference: out of 4 tests: 3
ARF2 727-859 (Arabidopsis thaliana, UniProt Q94JM3); reference: out of 2 tests: 0

Study 2 — effect on: cell-free assay; technique: competition with immobilised ligand; concentration: 1 µM; quantity: remaining binding
Compound: Cc1nc(Cc2cccc(C(F)(F)F)c2)sc1-c1ccc(C(N)=O)nc1
MAP3K4 (Homo sapiens, UniProt Q9Y6R4): 72%
FGFR1 (Homo sapiens, UniProt P11362): 83%
SBK1 (Homo sapiens, UniProt Q52WX2): 100%
MAP4K2 (Homo sapiens, UniProt Q12851): 100%
AKT2 (Homo sapiens, UniProt P31751): 81%
BMPR1B (Homo sapiens, UniProt O00238): 94%

Study 3 — technique: universal PBM; form: double-stranded DNA, one strand shown; sample: in vitro; concentration: not given; direction: higher = stronger binding; quantity: E-score
Target: Sal-like protein 4, full length isoform B (SALL4, Homo sapiens, UniProt Q9UJQ4-2, residues 1-616)
Setting: 8-mer, flanks averaged, mean of replicates
Residues (chain): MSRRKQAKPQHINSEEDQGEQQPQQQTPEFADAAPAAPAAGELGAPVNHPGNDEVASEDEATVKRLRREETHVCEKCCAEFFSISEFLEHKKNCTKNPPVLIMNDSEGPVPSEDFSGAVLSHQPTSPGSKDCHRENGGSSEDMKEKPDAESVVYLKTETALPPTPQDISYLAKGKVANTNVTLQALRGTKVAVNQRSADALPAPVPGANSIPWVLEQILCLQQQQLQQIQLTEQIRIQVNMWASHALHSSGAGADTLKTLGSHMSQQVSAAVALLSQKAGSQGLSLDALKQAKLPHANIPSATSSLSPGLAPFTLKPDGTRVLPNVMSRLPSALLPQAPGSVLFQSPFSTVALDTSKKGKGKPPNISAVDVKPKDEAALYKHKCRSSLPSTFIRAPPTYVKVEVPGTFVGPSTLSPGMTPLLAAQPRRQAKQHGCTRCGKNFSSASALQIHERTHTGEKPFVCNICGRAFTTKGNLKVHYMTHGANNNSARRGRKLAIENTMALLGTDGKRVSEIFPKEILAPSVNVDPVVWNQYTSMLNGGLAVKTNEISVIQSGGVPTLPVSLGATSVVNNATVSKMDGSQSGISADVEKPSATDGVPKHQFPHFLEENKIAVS
GAATTGGC: -0.0228
GATTCAGC: -0.26
CGGGTCCC: -0.381
GGTTCTTA: -0.0915
GCCTTGGA: -0.14
CCACGACC: -0.214
CTGAGATA: 0.113
CGTTGTAG: 0.00387

Further values, each from its own experiment
CCC[C@@H]1NC(=O)CSC[C@@H](C(=O)OCC)N(C)C(=O)[C@H](CC(C)C)NC(=O)[C@@H](C)N(C)C(=O)[C@@H](CC(C)C)NC(=O)[C@H](C)N(C)C(=O)[C@H]2CCCN2C(=O)[C@H](CC(C)C)NC(=O)CN(CCC)C1=O  logD (hydrocarbon/water): 0.691

Repeated from above (study 2):
FGFR1 (Homo sapiens, UniProt P11362): 83%
SBK1 (Homo sapiens, UniProt Q52WX2): 100%
